Measured values collected from several papers.
Numbered parts are unrelated; each lists some results of a single study. Several values in a cell are separate wells, animals, samples, runs or records.
UniProt Q7L7X3, sequence (whole entry, looked up): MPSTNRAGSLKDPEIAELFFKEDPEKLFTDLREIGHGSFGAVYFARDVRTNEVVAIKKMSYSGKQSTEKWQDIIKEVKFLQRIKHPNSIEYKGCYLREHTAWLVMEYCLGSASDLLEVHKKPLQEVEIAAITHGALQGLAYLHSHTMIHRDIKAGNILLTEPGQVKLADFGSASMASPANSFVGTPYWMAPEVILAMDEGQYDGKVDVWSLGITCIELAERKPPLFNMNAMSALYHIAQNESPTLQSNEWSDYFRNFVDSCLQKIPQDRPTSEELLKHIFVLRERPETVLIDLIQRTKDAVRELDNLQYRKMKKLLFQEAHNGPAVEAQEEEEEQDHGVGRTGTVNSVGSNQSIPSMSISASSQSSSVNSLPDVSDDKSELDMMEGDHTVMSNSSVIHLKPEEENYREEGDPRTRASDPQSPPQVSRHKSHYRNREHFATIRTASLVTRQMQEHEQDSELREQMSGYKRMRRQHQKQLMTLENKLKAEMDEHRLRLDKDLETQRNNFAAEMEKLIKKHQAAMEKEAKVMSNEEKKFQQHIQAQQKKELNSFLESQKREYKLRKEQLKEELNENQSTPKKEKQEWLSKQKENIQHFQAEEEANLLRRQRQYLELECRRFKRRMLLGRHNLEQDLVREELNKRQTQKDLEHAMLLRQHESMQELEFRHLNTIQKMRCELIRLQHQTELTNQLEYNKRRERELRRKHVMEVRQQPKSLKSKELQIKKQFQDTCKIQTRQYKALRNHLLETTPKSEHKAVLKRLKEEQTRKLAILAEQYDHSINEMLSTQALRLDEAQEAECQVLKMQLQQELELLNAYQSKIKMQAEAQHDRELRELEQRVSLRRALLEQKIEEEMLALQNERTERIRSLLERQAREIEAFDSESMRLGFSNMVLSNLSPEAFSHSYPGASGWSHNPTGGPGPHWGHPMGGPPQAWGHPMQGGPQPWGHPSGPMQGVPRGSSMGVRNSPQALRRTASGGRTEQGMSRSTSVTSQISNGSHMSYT
UniProt Q96BR1, sequence (whole entry, looked up): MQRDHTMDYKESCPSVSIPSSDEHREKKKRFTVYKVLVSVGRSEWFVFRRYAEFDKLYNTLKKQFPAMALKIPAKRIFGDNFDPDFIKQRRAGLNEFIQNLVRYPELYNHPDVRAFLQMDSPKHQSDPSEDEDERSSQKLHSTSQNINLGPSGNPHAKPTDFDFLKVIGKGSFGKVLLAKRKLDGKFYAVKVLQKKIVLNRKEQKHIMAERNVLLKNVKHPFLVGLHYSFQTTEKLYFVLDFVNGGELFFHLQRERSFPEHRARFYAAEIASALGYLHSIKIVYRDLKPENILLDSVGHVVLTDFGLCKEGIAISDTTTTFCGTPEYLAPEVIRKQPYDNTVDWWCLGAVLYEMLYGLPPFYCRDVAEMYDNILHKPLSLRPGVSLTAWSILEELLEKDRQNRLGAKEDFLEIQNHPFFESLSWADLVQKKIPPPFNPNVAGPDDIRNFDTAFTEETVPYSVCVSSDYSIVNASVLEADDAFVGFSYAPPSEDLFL
UniProt P80192, sequence (whole entry, looked up): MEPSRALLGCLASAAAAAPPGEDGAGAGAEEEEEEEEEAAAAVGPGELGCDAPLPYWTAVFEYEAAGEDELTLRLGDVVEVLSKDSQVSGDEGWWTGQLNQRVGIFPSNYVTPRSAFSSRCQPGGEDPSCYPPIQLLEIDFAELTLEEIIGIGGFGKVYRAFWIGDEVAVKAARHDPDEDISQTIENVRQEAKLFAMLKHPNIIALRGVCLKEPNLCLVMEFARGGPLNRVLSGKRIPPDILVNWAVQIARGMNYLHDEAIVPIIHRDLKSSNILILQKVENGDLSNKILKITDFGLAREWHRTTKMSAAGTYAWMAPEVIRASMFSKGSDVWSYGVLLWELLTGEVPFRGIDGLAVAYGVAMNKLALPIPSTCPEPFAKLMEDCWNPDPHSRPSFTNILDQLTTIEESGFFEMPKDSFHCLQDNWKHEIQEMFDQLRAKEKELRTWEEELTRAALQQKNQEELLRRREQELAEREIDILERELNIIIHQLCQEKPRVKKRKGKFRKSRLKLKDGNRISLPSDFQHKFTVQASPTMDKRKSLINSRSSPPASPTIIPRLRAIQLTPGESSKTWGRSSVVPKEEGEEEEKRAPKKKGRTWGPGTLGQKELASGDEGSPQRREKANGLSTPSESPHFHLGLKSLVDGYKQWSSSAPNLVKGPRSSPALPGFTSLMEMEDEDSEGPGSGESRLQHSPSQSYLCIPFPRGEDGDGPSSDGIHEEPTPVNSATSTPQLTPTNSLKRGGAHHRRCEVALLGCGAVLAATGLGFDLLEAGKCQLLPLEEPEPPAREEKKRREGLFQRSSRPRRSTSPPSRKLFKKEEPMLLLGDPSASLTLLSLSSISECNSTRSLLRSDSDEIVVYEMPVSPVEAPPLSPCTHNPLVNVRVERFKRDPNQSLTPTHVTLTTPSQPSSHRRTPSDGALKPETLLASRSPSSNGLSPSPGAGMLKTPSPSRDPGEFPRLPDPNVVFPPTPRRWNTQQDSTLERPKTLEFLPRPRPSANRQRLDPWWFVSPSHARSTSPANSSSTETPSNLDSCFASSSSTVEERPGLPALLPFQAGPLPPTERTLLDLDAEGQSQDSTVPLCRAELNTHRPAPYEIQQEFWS
UniProt P04049, sequence (whole entry, looked up): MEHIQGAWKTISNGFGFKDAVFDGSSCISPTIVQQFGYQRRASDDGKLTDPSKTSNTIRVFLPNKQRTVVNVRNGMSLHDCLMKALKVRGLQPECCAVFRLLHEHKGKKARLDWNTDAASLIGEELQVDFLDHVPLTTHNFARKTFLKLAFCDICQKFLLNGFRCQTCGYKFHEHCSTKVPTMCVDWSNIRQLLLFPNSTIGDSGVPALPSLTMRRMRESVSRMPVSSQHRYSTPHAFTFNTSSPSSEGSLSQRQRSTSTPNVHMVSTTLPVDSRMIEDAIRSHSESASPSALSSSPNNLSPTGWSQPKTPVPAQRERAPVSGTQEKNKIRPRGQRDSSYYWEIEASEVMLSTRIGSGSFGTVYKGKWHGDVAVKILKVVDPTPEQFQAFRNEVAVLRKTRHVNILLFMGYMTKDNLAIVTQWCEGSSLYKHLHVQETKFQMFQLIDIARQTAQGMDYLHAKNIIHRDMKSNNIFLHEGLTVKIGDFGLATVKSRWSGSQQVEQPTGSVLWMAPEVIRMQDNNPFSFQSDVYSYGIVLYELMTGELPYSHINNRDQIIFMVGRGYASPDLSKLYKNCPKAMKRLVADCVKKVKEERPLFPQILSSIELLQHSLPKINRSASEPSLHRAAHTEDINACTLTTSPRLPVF
UniProt P08631, sequence (whole entry, looked up): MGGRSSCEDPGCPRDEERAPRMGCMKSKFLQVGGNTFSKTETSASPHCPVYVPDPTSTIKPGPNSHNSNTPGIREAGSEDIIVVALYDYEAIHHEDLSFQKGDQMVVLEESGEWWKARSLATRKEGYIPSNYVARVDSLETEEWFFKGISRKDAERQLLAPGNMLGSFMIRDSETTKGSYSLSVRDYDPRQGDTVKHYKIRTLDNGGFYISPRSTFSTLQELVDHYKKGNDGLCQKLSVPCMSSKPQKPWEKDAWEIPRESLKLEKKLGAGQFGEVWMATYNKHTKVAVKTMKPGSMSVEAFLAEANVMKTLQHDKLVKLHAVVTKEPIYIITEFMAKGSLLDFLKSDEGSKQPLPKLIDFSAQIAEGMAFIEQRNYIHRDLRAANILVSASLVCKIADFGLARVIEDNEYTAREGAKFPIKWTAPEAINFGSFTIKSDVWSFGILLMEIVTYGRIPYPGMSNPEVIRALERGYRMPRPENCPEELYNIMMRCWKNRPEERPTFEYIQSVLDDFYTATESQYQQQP
UniProt Q92630, sequence (whole entry, looked up): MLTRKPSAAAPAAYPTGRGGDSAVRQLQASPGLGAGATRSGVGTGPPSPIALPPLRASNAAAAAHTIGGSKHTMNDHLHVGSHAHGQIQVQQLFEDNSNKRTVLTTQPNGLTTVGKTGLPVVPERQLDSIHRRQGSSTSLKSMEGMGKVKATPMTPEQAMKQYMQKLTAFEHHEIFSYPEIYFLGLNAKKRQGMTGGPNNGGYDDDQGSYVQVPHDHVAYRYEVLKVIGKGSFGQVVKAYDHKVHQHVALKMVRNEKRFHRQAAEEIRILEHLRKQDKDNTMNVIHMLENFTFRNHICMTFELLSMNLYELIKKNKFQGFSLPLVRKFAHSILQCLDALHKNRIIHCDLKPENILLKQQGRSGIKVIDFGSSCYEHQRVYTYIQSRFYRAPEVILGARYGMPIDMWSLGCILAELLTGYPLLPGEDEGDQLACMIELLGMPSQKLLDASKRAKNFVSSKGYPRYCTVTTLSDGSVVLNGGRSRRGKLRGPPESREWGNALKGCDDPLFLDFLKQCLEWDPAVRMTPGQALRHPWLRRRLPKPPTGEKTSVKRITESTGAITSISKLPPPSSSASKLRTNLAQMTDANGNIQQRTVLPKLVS

Set 1
Compound: CC(=O)N[C@@H](Cc1c[nH]c2ccccc12)C(=O)N[C@@H](CCC(=O)C=[N+]=[N-])C(=O)OC(C)C
Tested at: 5 µM
test system | setting | remaining compound
mouse EL4 tumour homogenate | 0 h, together with: E64 10 µM | 100%
mouse intestinal homogenate | 1 h, together with: dichlorvos 500 µM | 90%
mouse intestinal homogenate | 0 h, together with: dichlorvos 500 µM | 100%
mouse EL4 tumour homogenate | 0 h, together with: dichlorvos 500 µM | 100%
mouse EL4 tumour homogenate | 0 h, together with: aprotinin 0.8 µM | 100%
mouse intestinal homogenate | 0 h, together with: Pefabloc 1 mM | 100%
mouse EL4 tumour homogenate | 1 h, no inhibitor | 0.18% and 0.183%

Set 2
Compound: Cn1cc(/C=C2\C(=O)Nc3ccc(S(N)(=O)=O)cc32)c2ccccc21
Read-out: enzyme activity
Mode: inhibitor
Tested at: 0.5 µM
Baseline: control
target | remaining activity [%]
ULK1 (Homo sapiens, UniProt O75385) | 27.5
MAP3K9 (Homo sapiens, UniProt P80192) | 28.1
NTRK2 (Homo sapiens, UniProt Q16620) | 4.83
PHKG2 (Homo sapiens, UniProt P15735) | 52
HCK (Homo sapiens, UniProt P08631) | 50
INSRR (Homo sapiens, UniProt P14616) | 86.9
SGK3 (Homo sapiens, UniProt Q96BR1) | 94.7
DYRK2 (Homo sapiens, UniProt Q92630) | 85.5
PLK1 (Homo sapiens, UniProt P53350) | 92.1
TAOK1 (Homo sapiens, UniProt Q7L7X3) | 98.3
PDGFRB (Homo sapiens, UniProt P09619) | 66
FGFR2 (Homo sapiens, UniProt P21802) | 50.5
VRK1 (Homo sapiens, UniProt Q99986) | 103
MAP4K5 (Homo sapiens, UniProt Q9Y4K4) | 13.4
PRKD3 (Homo sapiens, UniProt O94806) | 76.4
RAF1 (Homo sapiens, UniProt P04049) | 102
DSTYK (Homo sapiens, UniProt Q6XUX3) | 92.5
ACVR1 (Homo sapiens, UniProt Q04771) | 111
RIPK2 (Homo sapiens, UniProt O43353) | 74.2

Set 3
Target: Alpha-1D adrenergic receptor (ADRA1D, Homo sapiens, UniProt P25100)
UniProt P25100, sequence (whole entry, looked up): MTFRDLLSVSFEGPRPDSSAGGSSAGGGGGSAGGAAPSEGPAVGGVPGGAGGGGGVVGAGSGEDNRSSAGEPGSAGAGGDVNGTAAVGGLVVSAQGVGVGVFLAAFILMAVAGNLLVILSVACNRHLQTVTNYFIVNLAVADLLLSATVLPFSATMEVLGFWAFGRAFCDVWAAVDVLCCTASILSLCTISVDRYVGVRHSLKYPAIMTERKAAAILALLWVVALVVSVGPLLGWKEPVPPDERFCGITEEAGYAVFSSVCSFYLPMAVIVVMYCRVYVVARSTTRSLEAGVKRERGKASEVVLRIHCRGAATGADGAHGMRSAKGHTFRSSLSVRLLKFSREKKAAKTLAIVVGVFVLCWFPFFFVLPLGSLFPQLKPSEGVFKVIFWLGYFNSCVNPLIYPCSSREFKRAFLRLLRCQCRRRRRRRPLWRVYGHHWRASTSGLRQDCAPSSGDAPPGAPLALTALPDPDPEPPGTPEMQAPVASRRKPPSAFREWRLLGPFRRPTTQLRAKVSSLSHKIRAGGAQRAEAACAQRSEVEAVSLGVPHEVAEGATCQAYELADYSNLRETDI
Read-out: binding
Method: radioligand binding
Tested at: 10 µM
Structure (SMILES) | inhibition [%]
O=C(Nc1cccnn1)N1CCC(=Cc2cccc(Oc3ccc(C(F)(F)F)cn3)c2)CC1 | 3.84
Cc1c(N2CCCC2)nc2ccc(Br)cc2c1C(=O)NC[C@H](CCC(=O)O)c1ccccc1Cl | 3.44
CN([C@@H]1CCc2c(CC(=O)O)c3cc(S(C)(=O)=O)ccc3n2C1)S(=O)(=O)c1ccc(F)cc1 | -11.6
CC(C)CC(=O)N1CCc2nc(-c3ccc(Br)cc3)nc(N(C)Cc3ccccc3)c2C1 | -22.3
O=C(Nc1ccc(-n2nc(-c3cccnc3)cc2C(F)(F)F)cn1)c1ccc(-c2ccccc2)c(F)c1 | 18.3
Cc1nc(N2CC[C@@H](O)C2)ncc1-c1cc(C(F)(F)F)cc2[nH]ncc12 | -10.6

Set 4
Host: human
Matrix: microsomes or S9
Tested at: 2 µM
Time: 0.5 h
SMILES | remaining compound [%]
Cn1cc(C(N)=O)cc1C(=O)Nc1ccccc1Oc1ccccc1 | 14.8
O=C(Cn1c(=O)n2nc(-c3cccnc3)nc2c2c3c(sc21)CCC3)NCc1ccco1 | 39.4
CCn1ccc(C(=O)N2C[C@@H](F)C[C@H]2Cn2cc(C(N)=O)nn2)n1 | > 100
Cc1ccc(S(=O)(=O)Nc2cccc(NS(=O)(=O)c3ccc(C)cc3)c2-n2ccc3cccnc32)cc1 | 15.1
O=C(Nc1nc(-c2ccncc2)cs1)c1ccccn1 | 13.1
CCOC(=O)c1sc(NC(=O)c2cc(OCC)c(OCC)c(OCC)c2)c(C(N)=O)c1C | 85
O=C(Cn1c(=O)oc2ccccc21)N[C@@H]1CCN(c2cnccn2)C[C@H]1O | 22.2
Cc1cc(Cl)cc2c(=O)[nH]c(-c3cc(Br)nn3-c3ncccc3Cl)nc12 | 14.2
c1ccc(Nc2ccc(Oc3ncnc4sccc34)cc2)cc1 | 98.7

Further values, each from its own experiment
SMILES | cell line | setting | measurement | value
COC(=O)C1=C(C)NC(C)=C(C(=O)O[C@@H]2CCCN(Cc3ccccc3)C2)[C@@H]1c1cccc([N+](=O)[O-])c1 (racemic) | A-375 | 100 µM, 60 h | viability | 6.71%

A few entries again (set 1):
test system | setting | remaining compound
mouse EL4 tumour homogenate | 0 h, together with: E64 10 µM | 100%
mouse intestinal homogenate | 1 h, together with: dichlorvos 500 µM | 90%
mouse intestinal homogenate | 0 h, together with: dichlorvos 500 µM | 100%
mouse EL4 tumour homogenate | 0 h, together with: dichlorvos 500 µM | 100%
mouse EL4 tumour homogenate | 0 h, together with: aprotinin 0.8 µM | 100%
mouse intestinal homogenate | 0 h, together with: Pefabloc 1 mM | 100%
